Published values gathered from unrelated publications.
± gives the spread as reported. In brackets after ≈: the same amount, converted by molar mass.
Chain of UniProt Q15858 (whole entry, looked up): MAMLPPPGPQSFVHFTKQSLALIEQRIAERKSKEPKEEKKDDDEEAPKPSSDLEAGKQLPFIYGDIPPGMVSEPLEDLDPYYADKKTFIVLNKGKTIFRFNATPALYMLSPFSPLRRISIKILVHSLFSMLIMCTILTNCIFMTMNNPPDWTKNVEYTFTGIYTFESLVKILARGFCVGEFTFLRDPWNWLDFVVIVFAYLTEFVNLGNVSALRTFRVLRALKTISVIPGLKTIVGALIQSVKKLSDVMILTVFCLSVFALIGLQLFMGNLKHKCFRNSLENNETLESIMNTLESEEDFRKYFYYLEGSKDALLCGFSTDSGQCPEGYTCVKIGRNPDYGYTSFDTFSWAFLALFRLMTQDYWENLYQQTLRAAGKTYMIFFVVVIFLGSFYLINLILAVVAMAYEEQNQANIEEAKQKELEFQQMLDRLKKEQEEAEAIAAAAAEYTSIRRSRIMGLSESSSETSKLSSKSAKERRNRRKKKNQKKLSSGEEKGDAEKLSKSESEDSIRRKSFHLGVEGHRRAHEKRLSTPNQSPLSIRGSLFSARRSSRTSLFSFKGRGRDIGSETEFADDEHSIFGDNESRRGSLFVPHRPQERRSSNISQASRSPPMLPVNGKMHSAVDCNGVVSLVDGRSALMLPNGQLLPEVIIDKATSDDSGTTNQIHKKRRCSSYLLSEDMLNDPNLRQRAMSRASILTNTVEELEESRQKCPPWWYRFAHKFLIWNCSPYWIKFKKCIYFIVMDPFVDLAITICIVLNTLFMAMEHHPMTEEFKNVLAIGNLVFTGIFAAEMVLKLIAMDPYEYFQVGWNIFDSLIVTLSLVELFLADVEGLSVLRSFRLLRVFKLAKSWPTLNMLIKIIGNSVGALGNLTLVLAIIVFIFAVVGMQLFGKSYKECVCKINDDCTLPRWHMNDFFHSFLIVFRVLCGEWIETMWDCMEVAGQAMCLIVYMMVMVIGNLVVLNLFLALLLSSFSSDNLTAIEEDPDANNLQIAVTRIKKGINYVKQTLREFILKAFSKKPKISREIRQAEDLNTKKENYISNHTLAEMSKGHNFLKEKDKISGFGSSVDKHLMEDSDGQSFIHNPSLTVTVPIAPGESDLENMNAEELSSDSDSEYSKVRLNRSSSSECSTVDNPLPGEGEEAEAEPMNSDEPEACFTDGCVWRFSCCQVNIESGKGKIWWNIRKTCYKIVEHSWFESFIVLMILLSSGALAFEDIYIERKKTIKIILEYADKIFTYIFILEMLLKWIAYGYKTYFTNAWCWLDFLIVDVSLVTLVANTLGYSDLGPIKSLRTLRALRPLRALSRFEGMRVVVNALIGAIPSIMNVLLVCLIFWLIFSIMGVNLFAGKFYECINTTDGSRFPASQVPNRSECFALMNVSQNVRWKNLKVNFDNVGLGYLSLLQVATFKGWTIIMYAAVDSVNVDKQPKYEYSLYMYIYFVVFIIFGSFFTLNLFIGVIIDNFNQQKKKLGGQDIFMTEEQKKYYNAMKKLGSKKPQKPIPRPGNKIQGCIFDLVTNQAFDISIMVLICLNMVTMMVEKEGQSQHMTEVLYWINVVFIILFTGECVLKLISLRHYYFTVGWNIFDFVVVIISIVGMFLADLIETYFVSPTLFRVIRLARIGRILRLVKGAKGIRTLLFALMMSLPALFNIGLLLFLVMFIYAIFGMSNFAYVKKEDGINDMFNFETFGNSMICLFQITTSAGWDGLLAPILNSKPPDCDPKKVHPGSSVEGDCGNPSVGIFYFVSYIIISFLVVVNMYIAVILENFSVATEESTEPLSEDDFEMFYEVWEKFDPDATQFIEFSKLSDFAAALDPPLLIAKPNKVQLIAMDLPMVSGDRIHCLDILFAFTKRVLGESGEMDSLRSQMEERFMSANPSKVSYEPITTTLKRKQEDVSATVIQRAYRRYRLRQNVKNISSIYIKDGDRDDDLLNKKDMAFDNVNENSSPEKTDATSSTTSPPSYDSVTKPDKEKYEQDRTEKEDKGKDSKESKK

For `CC(C)C[C@@H]1NC(=O)[C@H](CCCNC(=N)N)NC(=O)[C@@H]2CCCN2C(=O)[C@@H]2CSSC[C@H](NC(=O)CNC(=O)[C@@H]3CCCN3C(=O)[C@H](CCCCN)NC(=O)[C@H](CC(=O)O)NC(=O)[C@@H](NC(=O)CN)C(C)C)C(=O)N[C@@H](CCCNC(=N)N)C(=O)N[C@@H](Cc3ccc(O)cc3)C(=O)N[C@@H](CC(C)C)C(=O)N[C@@H](Cc3ccccc3)C(=O)NCC(=O)NCC(=O)N[C@H]3CSSC[C@H](NC(=O)CNC1=O)C(=O)N[C@@H](CCCCN)C(=O)NCC(=O)N[C@@H](CCCCN)C(=O)NCC(=O)N[C@@H](Cc1c[nH]cn1)C(=O)N[C@@H](CC(=O)O)C(=O)N[C@@H](Cc1ccc(O)cc1)C(=O)N[C@H](C(=O)N[C@@H](C)C(=O)N[C@@H](Cc1c[nH]c4ccccc14)C(=O)N[C@@H](CC(=O)O)C(=O)NCC(=O)N[C@H](C(=O)N[C@@H](Cc1ccccc1)C(=O)N[C@@H](CO)C(=O)N[C@@H](CC(=O)O)C(=O)O)[C@@H](C)O)CSSC[C@H](NC(=O)[C@H](CC(=O)O)NC(=O)[C@H](CC(=O)O)NC(=O)[C@H](CC(=O)O)NC(=O)[C@H](CO)NC(=O)[C@H](CCCCN)NC3=O)C(=O)N2`, “steady-state inactivation V0.5” read -76.5 ± 0.4 mV (Sodium channel protein type 9 subunit alpha (SCN9A, Homo sapiens, UniProt Q15858); manual patch clamp; HEK293; 1 µM).
`Cc1cc(/C=C/C#N)cc(C)c1-n1cnc2cnc(Nc3ccc(C#N)cc3)nc21` has an EC50 of 1.2 ± 0.7 nM (HIV-1; viral replication, single-round infection; RT mutant K101E).
`CC(C)n1ccn2cc(C(=O)NCc3ccc(F)cc3F)c(=O)c(O)c2c1=O` has an EC50 of 381 ± 20.3 nM (HIV-1; viral replication, single-round vector infection; IN E138K/G140A/Q148K).
For `Cc1cc(/C=C/C#N)cc(C)c1Nc1nc(Nc2ccc(C#N)cc2)ncc1N`, the EC50 was 0.7 ± 0.1 nM (HIV-1; viral replication, single-round infection; RT mutant K101E/M184V).
With `Cc1cccc(-c2cc(C#N)cc(Oc3c(C(F)(F)F)ccn(Cc4n[nH]c(=O)n4C)c3=O)c2)c1` the EC50 was 25 ± 3.3 nM (HIV-1; viral cytopathicity; MT4, E138K mutant).
For `CC(C)N1CCn2cc(C(=O)NCc3ccc(F)cc3F)c(=O)c(O)c2C1=O`, the EC50 was 391 ± 22.7 nM (HIV-1; viral replication, single-round vector infection; IN E138K/G140A/Q148K).
`O=C(NCc1ccc(F)cc1F)c1c(O)c2cccnc2n(O)c1=O` gave an EC50 of 31 ± 8 nM (HIV-1; viral replication; infected cells, integrase N155H mutant).
`Cc1cc(C)cc(S(=O)(=O)c2c(C(=O)NC3CC4(C3)CN(Cc3n[nH]c(=O)[nH]3)C4)[nH]c3ccc(Cl)cc23)c1` gave an EC50 of 230 ± 70 nM (HIV-1; viral replication; MT-4, F227L/V106A mutant).
Under “serum enzyme activity”, `CCCCCCCCCCCCCCCC(=O)N[C@@H](CCC(=O)NCCOCCOCCC(=O)NCCOCCOCCC(=O)NCCCC[C@H](NC(=O)[C@H](CC(=O)O)NC(=O)[C@H](CC(C)C)NC(=O)[C@H](Cc1ccc(O)cc1)NC(=O)[C@H](CCCCN)NC(=O)[C@H](CO)NC(=O)[C@H](Cc1ccc(O)cc1)NC(=O)[C@H](CC(=O)O)NC(=O)[C@H](CO)NC(=O)[C@@H](NC(=O)[C@H](Cc1ccccc1)NC(=O)[C@@H](NC(=O)CNC(=O)[C@H](CCC(N)=O)NC(=O)[C@@H](CO)NC(=O)[C@@H](N)Cc1c[nH]cn1)[C@@H](C)O)[C@@H](C)O)C(=O)N[C@@H](CCCNC(=N)N)C(=O)N[C@@H](CCCNC(=N)N)C(=O)N[C@@H](C)C(=O)N[C@@H](CCC(N)=O)C(=O)N[C@@H](CC(=O)O)C(=O)N[C@@H](Cc1ccccc1)C(=O)N[C@H](C(=O)N[C@@H](CCC(N)=O)C(=O)N[C@@H](Cc1c[nH]c2ccccc12)C(=O)N[C@@H](CC(C)C)C(=O)N[C@@H](CC(C)C)C(=O)N[C@@H](CC(N)=O)C(=O)N[C@H](C(=O)NCC(=O)NCC(=O)N1CCC[C@H]1C(=O)N[C@@H](CO)C(=O)N[C@@H](CO)C(=O)NCC(=O)N[C@@H](C)C(=O)N1CCC[C@H]1C(=O)N1CCC[C@H]1C(=O)N1CCC[C@H]1C(=O)N[C@@H](CO)C(N)=O)[C@@H](C)O)C(C)C)C(=O)O` is recorded as 594 ± 193 U/L (measured: CK; Sprague-Dawley rat, male; subcutaneous, 500 µg/kg once daily, 14 days).
The MIC of `CC[C@H](C)[C@H](NC(=O)[C@H](CCCCN)NC(=O)[C@H](CCCCN)NC(=O)[C@H](CC(C)C)NC(=O)[C@H](Cc1c[nH]c2ccccc12)NC(=O)CN)C(=O)NCC(=O)N[C@@H](CCCCN)C(=O)N[C@@H](CCCCN)C(=O)N[C@H](C(=O)N[C@@H](CCC(=O)O)C(=O)N[C@@H](CCCNC(=N)N)C(=O)N[C@H](C(=O)NCC(=O)N[C@@H](CCC(N)=O)C(=O)N[C@@H](Cc1c[nH]cn1)C(=O)N[C@H](C(=O)N[C@@H](CCCNC(=N)N)C(=O)N[C@@H](CC(=O)O)C(=O)N[C@@H](C)C(=O)N[C@H](C(=O)N[C@H](C(=O)N[C@@H](CCC(N)=O)C(=O)N[C@H](C(=O)N[C@H](C(=O)NCC(=O)N[C@H](C(=O)N[C@@H](C)C(=O)N[C@@H](CCC(N)=O)C(=O)N[C@@H](CCC(N)=O)C(=O)N[C@@H](C)C(=O)N[C@@H](C)C(=O)N[C@@H](CC(N)=O)C(=O)N[C@H](C(=O)N[C@@H](C)C(=O)N[C@@H](C)C(=O)N[C@H](C(=O)N[C@@H](CC(C)C)C(=O)N[C@@H](CCCCN)C(N)=O)[C@@H](C)O)C(C)C)C(C)C)[C@@H](C)CC)[C@@H](C)O)[C@@H](C)CC)[C@@H](C)O)[C@@H](C)O)C(C)C)[C@@H](C)CC` is reported as 4 mg/L (≈ 0.952 µM) (Klebsiella pneumoniae; broth microdilution; RKI 19/16, CAMHB with 10% mouse serum; 150 mM NaCl).
For `CC[C@H](C)[C@H](NC(=O)[C@H](CCCN)NC(=O)[C@H](CC(=O)O)NC(=O)[C@H](CC(C)C)NC(=O)C(C)(CC(C)C)NC(=O)[C@@H](NC(=O)[C@H](CO)NC(=O)[C@H](Cc1ccc(O)cc1)NC(=O)[C@H](CC(=O)O)NC(=O)[C@H](CO)NC(=O)[C@@H](NC(=O)[C@H](Cc1ccccc1)NC(=O)[C@@H](NC(=O)CNC(=O)[C@H](CCC(=O)O)NC(=O)C(C)(C)NC(=O)[C@@H](N)Cc1ccc(O)cc1)[C@@H](C)O)[C@@H](C)CC)[C@@H](C)CC)C(=O)N[C@@H](Cc1c[nH]cn1)C(=O)N[C@@H](CCC(N)=O)C(=O)NC(C)(C)C(=O)N[C@@H](CC(=O)O)C(=O)N[C@@H](Cc1ccccc1)C(=O)N[C@H](C(=O)N[C@@H](CCC(=O)O)C(=O)N[C@@H](Cc1ccc(O)cc1)C(=O)N[C@@H](CCCCNC(=O)COCCOCCNC(=O)COCCOCCNC(=O)CC[C@H](NC(=O)CCCCCCCCCCCCCCCCCCC(=O)O)C(=O)O)C(=O)N[C@@H](CC(C)C)C(=O)N[C@@H](CCC(=O)O)C(=O)NCC(=O)NCC(=O)N1CCC[C@H]1C(=O)N[C@@H](CO)C(=O)N[C@@H](CO)C(=O)NCC(=O)N[C@@H](C)C(=O)N1CCC[C@H]1C(=O)N1CCC[C@H]1C(=O)N1CCC[C@H]1C(=O)N[C@@H](CO)C(N)=O)C(C)C` (stereo partly drawn), the terminal half-life was 12.2 days (human, type 2 diabetes; subcutaneous, 25 mg single dose, geometric mean).
For `Cc1cc(C)cc(S(=O)(=O)c2c(C(N)=O)[nH]c3ccc(Cl)cc23)c1`, the EC50 was 1100 ± 630 nM (HIV-1; viral replication; MT-4, Y188L mutant).

Excerpt of the above:
Under “serum enzyme activity”, `CCCCCCCCCCCCCCCC(=O)N[C@@H](CCC(=O)NCCOCCOCCC(=O)NCCOCCOCCC(=O)NCCCC[C@H](NC(=O)[C@H](CC(=O)O)NC(=O)[C@H](CC(C)C)NC(=O)[C@H](Cc1ccc(O)cc1)NC(=O)[C@H](CCCCN)NC(=O)[C@H](CO)NC(=O)[C@H](Cc1ccc(O)cc1)NC(=O)[C@H](CC(=O)O)NC(=O)[C@H](CO)NC(=O)[C@@H](NC(=O)[C@H](Cc1ccccc1)NC(=O)[C@@H](NC(=O)CNC(=O)[C@H](CCC(N)=O)NC(=O)[C@@H](CO)NC(=O)[C@@H](N)Cc1c[nH]cn1)[C@@H](C)O)[C@@H](C)O)C(=O)N[C@@H](CCCNC(=N)N)C(=O)N[C@@H](CCCNC(=N)N)C(=O)N[C@@H](C)C(=O)N[C@@H](CCC(N)=O)C(=O)N[C@@H](CC(=O)O)C(=O)N[C@@H](Cc1ccccc1)C(=O)N[C@H](C(=O)N[C@@H](CCC(N)=O)C(=O)N[C@@H](Cc1c[nH]c2ccccc12)C(=O)N[C@@H](CC(C)C)C(=O)N[C@@H](CC(C)C)C(=O)N[C@@H](CC(N)=O)C(=O)N[C@H](C(=O)NCC(=O)NCC(=O)N1CCC[C@H]1C(=O)N[C@@H](CO)C(=O)N[C@@H](CO)C(=O)NCC(=O)N[C@@H](C)C(=O)N1CCC[C@H]1C(=O)N1CCC[C@H]1C(=O)N1CCC[C@H]1C(=O)N[C@@H](CO)C(N)=O)[C@@H](C)O)C(C)C)C(=O)O` is recorded as 594 ± 193 U/L (measured: CK; Sprague-Dawley rat, male; subcutaneous, 500 µg/kg once daily, 14 days).
